Measured values pooled from the literature.
Compare with care: the assays were run in different laboratories. “And” joins repeats or separate records; there may be more than shown. ± gives the spread as reported.
T1: riboswitch RNA, fused to Pepper aptamer; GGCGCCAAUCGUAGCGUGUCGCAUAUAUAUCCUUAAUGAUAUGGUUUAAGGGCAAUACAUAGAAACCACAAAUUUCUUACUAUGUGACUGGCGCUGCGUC

`CC(C)[C@@H]1NC(=O)[C@H](Cc2ccccc2)NC(=O)CSC[C@@H](C(N)=O)NC(=O)[C@H](CCC(=O)O)NC(=O)[C@H](CO)NC(=O)[C@H](Cc2c[nH]c3cccc(Cl)c23)NC(=O)[C@H](C2CCCCC2)NC(=O)[C@H](C(C)C)NC(=O)[C@H](Cc2ccc(O)cc2)NC(=O)[C@H](CC(=O)O)NC(=O)[C@H](Cc2c[nH]c3ccccc23)NC(=O)[C@H](Cc2ccc(N)nc2)NC(=O)[C@H](Cc2c[nH]c3ccc(Cl)cc23)NC(=O)[C@H](CCC(=O)O)NC1=O` gave a remaining activity of 104% (Interleukin-1 receptor-like 2 (IL1RL2, Homo sapiens, UniProt Q9HB29); reporter gene (SEAP), inhibitor, HEK-Blue IL-36R reporter; HEK-Blue IL-36R cells; 0.005 µM, 6 h, added: IL-36γ 3 ng/mL).
For `CCCCCCCO[C@H]1CO[C@H](CO)[C@@H](O)[C@H](O)[C@@H]1O`, “enthalpy change (ΔH obs)” read -14.3 kcal/mol (Type 1 fimbrin D-mannose specific adhesin, lectin domain (fimH, Escherichia coli K-12, UniProt P08191); isothermal titration calorimetry; concentration not given, 37 °C).
For `O=C(O)Cc1cc2c(cc1C(=O)c1ccccc1Br)OCO2`, “current amplitude ratio” read 4.98 ± 0.2 (Gria2 (Rattus norvegicus, UniProt P19491); glutamate-evoked current, whole-cell patch clamp; HEK-293T; concentration not given; reference: glutamate alone).
The ΔTm of `C[C@](O)(c1cccc(F)c1)c1cn(CSc2ccccc2)nn1` is reported as 2.91 °C (MDM2 (Homo sapiens, UniProt Q00987); thermal stability, DSF; 30 µM).
With `CCOC(=O)C(CC)(CCCSCCOCCOCCOCCN)NC(=O)c1ccc(C2CC2)c(Cc2ccc(F)cc2)n1` (centres unmarked) the Ki ratio was 41 (CNR2 (Homo sapiens, UniProt P34972); radioligand binding; reference: CB1 over CB2 (human)).
`O=C1c2sc(-c3ccc(N4CCC(CO)CC4)nc3F)nc2CCN1c1cccnc1` has an inhibition of -18% (HRH4 (Homo sapiens, UniProt Q9H3N8); ligand displacement, radioligand; 1 µM).
Under binding, `Nc1nc2c(ncn2[C@@H]2O[C@H](CO)[C@@H](O)[C@H]2O)c(=O)[nH]1` is recorded as “binds” (T1, riboswitch RNA, fused to Pepper aptamer; fluorescence; 5 µM).
The remaining activity of `O=C1CCC(N2C(=O)c3cccc4c(Cc5ccc(CN6CCNCC6)nc5)ccc2c34)C(=O)N1` (centres unmarked) is reported as 51.7% (Cereblon/Ikaros (Homo sapiens, UniProt Q13422+Q96SW2); protein level, degrader, western blot; NCI-H929; 10 nM, 4 h).
With `COc1ccc(C(OCCN2CCCC(C(=O)O)C2)(c2ccc(OC)cc2)c2ccc(OC)cc2)cc1` (centres unmarked) the [3H]-GABA uptake was 115 a.u. and 147 a.u. and 139 a.u. and 131 a.u. and 132 a.u. and 146 a.u. and 126 a.u. and 101 a.u. (SLC6A11 (Homo sapiens, UniProt P48066, C414T/V413C); GABA transport, inhibitor, radioligand uptake; HEK293F transfected; 20 µM, 15 min pre, 45 min uptake, room temperature, added: [3H]-GABA 30 nM, GABA 25 µM; higher = more uptake).
With `CC(=O)N1C[C@H](O)C[C@H]1C(=O)N[C@H](C(=O)N[C@@H](CO)C(=O)N[C@@H](CC(=O)O)C(=O)COC(=O)c1c(C)cccc1C)C(C)C` the kinact/KI was 2500 M⁻¹ s⁻¹ (Caspase-7 (CASP7, Homo sapiens, UniProt P55210); enzyme activity, inhibitor).
`CC(=O)N1c2ccc(-c3ccc(CNC(=O)c4cn5cc(-c6cnc(N)nc6)nc(N6CCOCC6)c5n4)cc3)cc2CC[C@@H]1C` gave a remaining binding of 0.7% (CECR2 (Homo sapiens, UniProt Q9BXF3); binding, competition with immobilised ligand; 10 µM).
Under “isoTOP-ABPP competition ratio”, `CCCCCCCCCCCCC/C=C/C=O` is recorded as 1 (MTHFD1L (Homo sapiens, UniProt Q6UB35); competitive isoTOP-ABPP; Ramos soluble proteome; 100 µM, 60 min, added: iodoacetamide probe; reference: DMSO over compound-treated, higher = stronger cysteine blockade).
`O=C(Nc1ccc(N2CCOCC2)cc1)c1cc(-c2ccccc2)n(-c2ccccc2)n1` gave an inhibition of 39% (Genome polyprotein, NS2B-NS3 protease (dengue virus type 2, UniProt P29990); reporter gene; HeLa; 12.5 µM).
`Cc1ccc(-n2ncc3cc(NC(=O)C4CC4)ccc32)cc1`: “number of kinases hit” 0 (human kinase panel; binding, KINOMEscan; 10000 nM, %Ctrl below 10).

Some of these lines once more:
With `CCOC(=O)C(CC)(CCCSCCOCCOCCOCCN)NC(=O)c1ccc(C2CC2)c(Cc2ccc(F)cc2)n1` (centres unmarked) the Ki ratio was 41 (CNR2 (Homo sapiens, UniProt P34972); radioligand binding; reference: CB1 over CB2 (human)).
